Results pooled from the literature.
Every numbered part comes from another study and shows a few of its results, in no order.
Sequence of UniProt Q13237 (whole entry, looked up): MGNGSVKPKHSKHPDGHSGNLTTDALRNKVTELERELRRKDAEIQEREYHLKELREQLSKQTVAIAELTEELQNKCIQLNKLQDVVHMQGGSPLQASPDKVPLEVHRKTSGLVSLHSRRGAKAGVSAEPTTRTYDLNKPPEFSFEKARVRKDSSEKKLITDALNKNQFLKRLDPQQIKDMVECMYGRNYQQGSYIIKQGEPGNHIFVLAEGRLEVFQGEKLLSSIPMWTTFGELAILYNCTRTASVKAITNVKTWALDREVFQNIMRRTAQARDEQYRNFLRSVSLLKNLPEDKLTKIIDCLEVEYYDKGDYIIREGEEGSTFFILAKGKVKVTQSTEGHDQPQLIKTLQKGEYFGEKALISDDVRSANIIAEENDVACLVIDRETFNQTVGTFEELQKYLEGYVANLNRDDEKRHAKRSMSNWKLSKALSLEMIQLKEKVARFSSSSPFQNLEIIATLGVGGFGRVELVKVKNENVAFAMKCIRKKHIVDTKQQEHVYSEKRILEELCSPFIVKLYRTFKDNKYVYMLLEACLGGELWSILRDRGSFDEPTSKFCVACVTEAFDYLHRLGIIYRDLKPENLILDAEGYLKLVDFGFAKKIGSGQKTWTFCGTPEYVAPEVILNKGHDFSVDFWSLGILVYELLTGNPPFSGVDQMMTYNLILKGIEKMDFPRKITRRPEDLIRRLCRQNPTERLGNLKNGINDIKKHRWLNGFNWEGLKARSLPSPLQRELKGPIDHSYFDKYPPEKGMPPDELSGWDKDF
Sequence of UniProt Q9UM73 (whole entry, unmodified, looked up): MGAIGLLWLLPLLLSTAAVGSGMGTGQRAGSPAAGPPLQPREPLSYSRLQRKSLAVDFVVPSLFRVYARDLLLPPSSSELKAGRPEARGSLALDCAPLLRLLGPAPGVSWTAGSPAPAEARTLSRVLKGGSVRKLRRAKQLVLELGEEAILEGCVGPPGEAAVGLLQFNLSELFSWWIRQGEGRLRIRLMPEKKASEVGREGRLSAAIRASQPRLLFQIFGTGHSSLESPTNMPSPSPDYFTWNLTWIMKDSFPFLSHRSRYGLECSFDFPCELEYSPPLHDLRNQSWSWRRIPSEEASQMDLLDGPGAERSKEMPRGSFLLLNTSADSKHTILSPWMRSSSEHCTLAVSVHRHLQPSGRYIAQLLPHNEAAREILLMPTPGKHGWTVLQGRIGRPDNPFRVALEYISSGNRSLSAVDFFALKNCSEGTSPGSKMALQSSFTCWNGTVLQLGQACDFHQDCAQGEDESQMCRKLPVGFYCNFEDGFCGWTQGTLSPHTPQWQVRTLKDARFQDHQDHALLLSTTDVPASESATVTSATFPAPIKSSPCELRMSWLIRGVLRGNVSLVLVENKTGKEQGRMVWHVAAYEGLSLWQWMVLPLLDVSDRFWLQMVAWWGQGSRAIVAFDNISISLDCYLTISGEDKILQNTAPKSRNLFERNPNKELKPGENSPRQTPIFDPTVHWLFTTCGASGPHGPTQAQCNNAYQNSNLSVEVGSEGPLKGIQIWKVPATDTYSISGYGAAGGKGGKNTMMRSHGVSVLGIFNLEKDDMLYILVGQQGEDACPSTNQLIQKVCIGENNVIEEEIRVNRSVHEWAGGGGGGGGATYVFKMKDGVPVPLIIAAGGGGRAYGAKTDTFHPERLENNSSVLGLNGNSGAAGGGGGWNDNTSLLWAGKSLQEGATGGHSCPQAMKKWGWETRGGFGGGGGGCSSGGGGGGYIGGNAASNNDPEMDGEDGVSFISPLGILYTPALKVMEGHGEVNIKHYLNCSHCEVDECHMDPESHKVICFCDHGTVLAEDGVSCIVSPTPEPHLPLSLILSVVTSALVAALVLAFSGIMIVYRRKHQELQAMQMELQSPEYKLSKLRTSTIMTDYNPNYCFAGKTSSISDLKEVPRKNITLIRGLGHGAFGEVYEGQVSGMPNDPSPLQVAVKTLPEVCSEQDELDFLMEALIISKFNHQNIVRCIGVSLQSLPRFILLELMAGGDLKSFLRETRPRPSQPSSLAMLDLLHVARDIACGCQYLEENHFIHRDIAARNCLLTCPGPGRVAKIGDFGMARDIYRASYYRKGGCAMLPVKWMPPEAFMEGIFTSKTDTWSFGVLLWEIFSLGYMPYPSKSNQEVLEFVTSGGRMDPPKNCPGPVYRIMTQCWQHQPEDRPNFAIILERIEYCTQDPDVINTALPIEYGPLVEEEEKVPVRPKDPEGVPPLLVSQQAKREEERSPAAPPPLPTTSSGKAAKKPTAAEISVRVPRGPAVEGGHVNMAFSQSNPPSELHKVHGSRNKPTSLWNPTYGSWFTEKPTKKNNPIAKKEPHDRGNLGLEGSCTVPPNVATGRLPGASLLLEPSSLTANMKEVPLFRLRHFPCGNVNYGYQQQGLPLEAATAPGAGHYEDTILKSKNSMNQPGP
Sequence of UniProt P10721 (whole entry, looked up): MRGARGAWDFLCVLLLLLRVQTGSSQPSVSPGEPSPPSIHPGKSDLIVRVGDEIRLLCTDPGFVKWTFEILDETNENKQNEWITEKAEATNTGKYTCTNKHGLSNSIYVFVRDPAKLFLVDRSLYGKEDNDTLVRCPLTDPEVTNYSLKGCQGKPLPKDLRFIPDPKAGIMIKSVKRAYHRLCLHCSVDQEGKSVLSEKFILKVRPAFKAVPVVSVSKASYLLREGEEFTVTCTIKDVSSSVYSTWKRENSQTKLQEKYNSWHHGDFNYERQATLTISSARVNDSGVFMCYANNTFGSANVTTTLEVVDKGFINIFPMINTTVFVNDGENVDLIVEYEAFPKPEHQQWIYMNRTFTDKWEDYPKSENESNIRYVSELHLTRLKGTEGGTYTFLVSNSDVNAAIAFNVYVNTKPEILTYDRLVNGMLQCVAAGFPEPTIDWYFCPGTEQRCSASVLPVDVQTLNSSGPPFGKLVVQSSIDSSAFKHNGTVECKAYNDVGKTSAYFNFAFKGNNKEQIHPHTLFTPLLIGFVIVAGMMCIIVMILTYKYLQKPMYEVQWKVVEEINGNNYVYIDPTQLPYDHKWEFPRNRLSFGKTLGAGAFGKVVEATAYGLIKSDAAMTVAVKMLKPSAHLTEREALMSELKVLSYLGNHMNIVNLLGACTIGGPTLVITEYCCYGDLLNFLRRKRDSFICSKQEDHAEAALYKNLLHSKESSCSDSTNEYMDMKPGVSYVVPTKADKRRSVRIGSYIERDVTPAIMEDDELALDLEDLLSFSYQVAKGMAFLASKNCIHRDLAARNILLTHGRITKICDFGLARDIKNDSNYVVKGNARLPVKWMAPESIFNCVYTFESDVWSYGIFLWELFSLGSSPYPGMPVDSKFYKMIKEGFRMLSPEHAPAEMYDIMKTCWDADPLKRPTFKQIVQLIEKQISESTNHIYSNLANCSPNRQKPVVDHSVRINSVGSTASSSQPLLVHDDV
Sequence of UniProt P78368 (whole entry, looked up): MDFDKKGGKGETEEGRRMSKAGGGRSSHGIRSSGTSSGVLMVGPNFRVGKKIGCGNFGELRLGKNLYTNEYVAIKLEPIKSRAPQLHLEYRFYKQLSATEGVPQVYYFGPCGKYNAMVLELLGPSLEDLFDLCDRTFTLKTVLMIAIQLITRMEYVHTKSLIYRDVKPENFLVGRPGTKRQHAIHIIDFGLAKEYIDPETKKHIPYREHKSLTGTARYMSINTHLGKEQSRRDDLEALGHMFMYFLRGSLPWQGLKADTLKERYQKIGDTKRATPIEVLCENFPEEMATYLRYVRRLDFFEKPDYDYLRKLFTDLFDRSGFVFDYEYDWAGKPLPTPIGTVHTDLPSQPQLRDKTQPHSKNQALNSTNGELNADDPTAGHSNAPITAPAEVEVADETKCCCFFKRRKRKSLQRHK

Block 1
Structure (SMILES): COc1ccc(-c2c(Nc3ccccn3)[nH]c3c(C4=CCCCC4)c(-c4ccccc4)nn3c2=O)cc1
Method: LC-MS/MS
Species: human patients
Matrix: plasma
Quantity: plasma methionine concentration
200 mg BID, 1 h, geometric mean: 62400 ng/mL
200 mg BID, 6 h, median: 96300 ng/mL
dose not given, 1 h, mean, QD dosing: 70200 ng/mL
50 mg QD, 8 h, mean: 70300 ng/mL
50 mg QD, 8 h, geometric mean: 63800 ng/mL

Block 2
Target: Focal adhesion kinase 1 (PTK2, Homo sapiens, UniProt Q05397)
Sequence of UniProt Q05397 (whole entry, looked up): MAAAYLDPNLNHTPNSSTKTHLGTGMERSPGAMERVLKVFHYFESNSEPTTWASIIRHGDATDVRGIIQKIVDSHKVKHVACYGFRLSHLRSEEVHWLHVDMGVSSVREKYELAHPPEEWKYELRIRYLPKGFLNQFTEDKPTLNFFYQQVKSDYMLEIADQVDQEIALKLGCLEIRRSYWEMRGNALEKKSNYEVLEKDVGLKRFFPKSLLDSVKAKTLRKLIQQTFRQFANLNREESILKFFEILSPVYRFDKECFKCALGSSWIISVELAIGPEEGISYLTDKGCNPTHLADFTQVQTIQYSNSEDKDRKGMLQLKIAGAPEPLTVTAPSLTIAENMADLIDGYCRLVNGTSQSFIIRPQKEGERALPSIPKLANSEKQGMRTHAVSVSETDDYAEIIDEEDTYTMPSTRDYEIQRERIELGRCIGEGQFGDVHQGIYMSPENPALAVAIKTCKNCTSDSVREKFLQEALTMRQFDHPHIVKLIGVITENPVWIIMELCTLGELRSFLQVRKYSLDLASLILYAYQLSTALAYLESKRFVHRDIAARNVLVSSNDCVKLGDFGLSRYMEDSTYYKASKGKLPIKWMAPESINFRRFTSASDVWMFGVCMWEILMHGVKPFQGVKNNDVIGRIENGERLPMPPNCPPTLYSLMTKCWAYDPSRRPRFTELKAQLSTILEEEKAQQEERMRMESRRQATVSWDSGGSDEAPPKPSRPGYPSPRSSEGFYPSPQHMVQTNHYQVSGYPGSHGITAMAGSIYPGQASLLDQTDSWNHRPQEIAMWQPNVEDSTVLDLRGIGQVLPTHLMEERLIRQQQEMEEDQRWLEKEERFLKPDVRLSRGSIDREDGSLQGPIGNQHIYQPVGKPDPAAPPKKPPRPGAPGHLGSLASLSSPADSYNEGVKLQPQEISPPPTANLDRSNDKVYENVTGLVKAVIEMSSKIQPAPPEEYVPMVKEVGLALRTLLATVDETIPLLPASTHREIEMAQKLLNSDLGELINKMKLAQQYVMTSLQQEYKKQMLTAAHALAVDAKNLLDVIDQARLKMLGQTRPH
Effect on: enzyme activity
Mode: inhibitor
Concentration: 0.5 µM
Reference: control
Quantity: remaining activity
O=C1NC(=O)c2c1c1c3ccccc3[nH]c1c1[nH]c3cc(Br)ccc3c21: 91.8%
COc1ccc2c(c1)c(C1=C(c3c[nH]c4ccccc34)C(=O)NC1=O)cn2CCCN(C)C: 88.2%
O=C1Cc2c([nH]c3ccc(Br)cc23)-c2ccccc2N1: 94.3%
COc1cccc(-c2cc(=O)c3ccccc3o2)c1N: 98.2%
COc1ccc(COc2ccc(Cc3cnc(N)nc3N)cc2OC)cc1: 95.5%
O=c1cc(N2CCOCC2)oc2c(-c3ccccc3)cccc12: 103%
Cc1cc(Nc2cc(N3CCN(C)CC3)nc(Sc3ccc(NC(=O)C4CC4)cc3)n2)[nH]n1: 100%
N#Cc1cnc2cnc(NCc3cccnc3)cc2c1Nc1ccc(F)c(Cl)c1: 99.6%

Block 3
Organism: Sarcocystis neurona
Effect on: parasite activity
Concentration: 10 µM
Time: 96 h
Quantity: activity class
CN1CCN(C2=Nc3cc(Cl)ccc3Nc3ccccc32)CC1: inactive
CC(=O)O[C@H]1C[C@@H]2CC[C@@H]3[C@H](CC[C@@]4(C)[C@H]3C[C@H]([N+]3(C)CCCCC3)[C@@H]4OC(C)=O)[C@@]2(C)C[C@@H]1N1CCCCC1: inactive
O=C1CN2Cc3c(ccc(Cl)c3Cl)N=C2N1: inactive
CC(C(=O)O)c1ccc(-c2ccccc2)c(F)c1 (stereo not drawn): inactive
CCC(=O)O[C@]1(C(=O)SCF)[C@H](C)C[C@H]2[C@@H]3C[C@H](F)C4=CC(=O)C=C[C@]4(C)[C@@]3(F)[C@@H](O)C[C@@]21C: inactive
CC(C)(C)NC[C@H](O)COc1nsnc1N1CCOCC1: inactive
CS(=O)(=O)c1ccc(-c2cc(Br)sc2-c2ccc(F)cc2)cc1: inactive
CC(C)c1ccc2oc3nc(N)c(C(=O)O)cc3c(=O)c2c1: inactive
CN(C)CCOC(c1ccccc1)c1ccccc1: inactive
CC(=O)OCC[N+](C)(C)C: inactive
c1ccc2c(CC3=NCCN3)cccc2c1: inactive
CN(C)c1nc(N(C)C)nc(N(C)C)n1: inactive

Block 4
Structure (SMILES): CS(=O)(=O)N1CCCC(NC(=O)[C@H](CCC2CCCCC2)NC(=O)c2ccc(CNC(=O)c3cnc4ccccn34)cc2)C1 (stereo partly drawn)
Effect on: cell-free assay
Method: competition with immobilised ligand
Concentration: 0.1 µM
Quantity: remaining binding
PAK4 (Homo sapiens, UniProt O96013): 100%
PRKG2 (Homo sapiens, UniProt Q13237): 82%
MAPK10 (Homo sapiens, UniProt P53779): 85%
TXK (Homo sapiens, UniProt P42681): 91%
CHUK (Homo sapiens, UniProt O15111): 100%
Tyrosine-protein kinase ABL1, non-phosphorylated (ABL1, Homo sapiens, UniProt P00519, H396P): 35%
STK10 (Homo sapiens, UniProt O94804): 100%
MAP3K1 (Homo sapiens, UniProt Q13233): 100%
RAF1 (Homo sapiens, UniProt P04049): 61%
BUB1 (Homo sapiens, UniProt O43683): 100%
CDK4 (Homo sapiens, UniProt P11802): 99%
EGFR (Homo sapiens, UniProt P00533, L858R/T790M): 100%
NEK11 (Homo sapiens, UniProt Q8NG66): 94%
CSNK1G2 (Homo sapiens, UniProt P78368): 70%
ACVR2B (Homo sapiens, UniProt Q13705): 100%
ALK (Homo sapiens, UniProt Q9UM73, C1156Y): 100%
MAP3K14 (Homo sapiens, UniProt Q99558): 100%
WNK2 (Homo sapiens, UniProt Q9Y3S1): 100%
FLT1 (Homo sapiens, UniProt P17948): 100%
Mast/stem cell growth factor receptor Kit, autoinhibited (KIT, Homo sapiens, UniProt P10721): 100%
CDC42BPA (Homo sapiens, UniProt Q5VT25): 100%
MAP4K3 (Homo sapiens, UniProt Q8IVH8): 87%

Block 5
Species: mouse
Matrix: microsomes or S9
Concentration: 2 µM
Time: 0.5 h
Quantity: remaining compound
Cc1cc2n(n1)CC(CNC(C)COc1ccc(F)cc1F)CN2 (stereo not drawn): 83.2%
CCOC(=O)c1[nH]c(=O)n(CCNC(=O)OC(C)(C)C)c1C: 46.2%
CCOC(=O)N1CCN(C(=O)c2cc(-c3ccccc3)nn2C)CC1: 19.5%
Cc1ccc(NC(=O)N2Cc3c(sc4c3CCCC4)-n3cccc3C2C)cc1Cl (stereo not drawn): 9.06%

Repeated from above (block 3):
CC(C)(C)NC[C@H](O)COc1nsnc1N1CCOCC1: inactive
CN(C)CCOC(c1ccccc1)c1ccccc1: inactive
CC(=O)OCC[N+](C)(C)C: inactive
